# Assay results gathered from unrelated publications.
# “And” joins repeats or separate records; there may be more than shown.
# Target: Protein kinase C alpha type (PRKCA, Homo sapiens, UniProt P17252)
SMILES,test,setting,scale,measurement,result
CCn1cc(C(=O)O)c(=O)c2c(N)c(F)c(NC3CCCCC3)cc21,kinase activity,"0.1 µM, added: ATP at Km",,inhibition,-4.5%
COc1cc(-n2cc3cc(F)cc(C(N)=O)c3n2)cc(Cl)c1C1CC(O)(CCO)Cc2ccccc21 (centres unmarked),"enzyme activity, inhibitor",10 µM,,inhibition,6.04%
Cc1ccc(C)c(-c2ccc3nc(NC(=O)C4CCCCC4)nn3c2)c1,"enzyme activity, Dundee kinase panel",10 µM,,remaining activity,95%
Cc1cccc(O[C@H]2CCC[C@@H](C(C)CNCc3ccncc3)C2)c1 (relative stereo),enzyme activity,10 µM,,inhibition,-4%
NC(=O)C[C@H]1CCc2sc3ncnc(O[C@H]4CC[C@H](N5CCOCC5)CC4)c3c21,"enzyme activity, inhibitor",10 µM,,inhibition,8%
Cc1cccc(-c2ccc3nc(NC(=O)C4CCOCC4)nn3c2)c1,"enzyme activity, Dundee kinase panel",10 µM,,remaining activity,97%
COc1ccc(NC(=O)Nc2ccc3c(c2)C(=O)N(C(C)CO)CC(C)C(CN(C)Cc2ccc4c(c2)OCO4)O3)cc1 (centres unmarked),"kinase activity, KinaseProfiler","0.03 µM, species human",relative to: control,remaining activity,82%
c1ccc2c(Nc3cc(C4CCC4)[nH]n3)nc(Nc3ccc4nc[nH]c4c3)nc2c1,"enzyme activity, inhibitor",0.25 µM,,remaining activity,92%
COCC12C(=O)NC3C4(C(OC)CC1O)C1CC5(O)C(OC)C(O)C(OC(C)=O)(C1C5OC(=O)c1ccccc1)C3(O)C(OC)C24 (centres unmarked),"kinase activity, inhibitor, ProQinase kinase profiling",25 µM,relative to: control,remaining activity,96% and 97%
O=c1c(-c2ccc(Cl)c(CN3CCOCC3)c2)coc2cc(O)ccc12,"enzyme activity, inhibitor",1 µM,,remaining activity,100%
C=CC(=O)Nc1cccc(-c2cnc3[nH]cc(C(=O)NC(C)(C)C)c3n2)c1,"enzyme activity, inhibitor",0.1 µM,,inhibition,34%
O=C=[N][Ru-4]123([n]4c5ccc(O)cc5c5c6c(c7cc(F)c[n+]1c7c54)C(=O)NC6=O)[S+]1CC[S+]2CC[S+]3CC1 (centres unmarked),enzyme activity,"100 nM, human enzyme, added: 10 µM ATP",relative to: untreated,remaining activity,113%
O=C(O)CCC(=O)c1cccc(NS(=O)(=O)c2c[nH]c3ncccc23)c1,"kinase activity, radiometric",10 µM,,remaining activity,85%
O=C(Cc1ccc(OCc2ccccc2)cc1)NC1(C(=O)O)CCN(C(=O)c2ccc(-c3cccc(Cl)c3)cc2)CC1,"enzyme activity, inhibitor",10 µM,,activity vs control,92%
